Results from different studies.
Compare with care: the assays were run in different laboratories.
Organism: Staphylococcus aureus

SMILES	assay	system	conditions	MIC
CC[C@H](C)[C@H](NC(=O)[C@H](CC(=O)O)NC(=O)[C@H](Cc1ccccc1)NC(=O)[C@H](CC(C)C)NC(=O)CN)C(=O)N[C@H](C(=O)N[C@@H](CCCCN)C(=O)N[C@@H](CCCCN)C(=O)N[C@@H](CC(C)C)C(=O)N[C@@H](CC(C)C)C(=O)N[C@@H](CCCCN)C(=O)N[C@@H](CC(C)C)C(=O)N[C@@H](CC(C)C)C(=O)N[C@@H](CCCCN)C(N)=O)C(C)C		SH1000 GFP-expressing, nutrient broth	20 h, 37 °C	100 µM
CC[C@H](C)[C@H](NC(=O)[C@H](CCCNC(=N)N)NC(=O)CNC(=O)[C@H](CC(C)C)NC(=O)[C@H](Cc1ccccc1)NC(=O)[C@H](CCC(N)=O)NC(=O)[C@H](Cc1ccccc1)NC(=O)[C@@H](N)C(C)C)C(=O)N[C@H](C(=O)N[C@@H](Cc1c[nH]cn1)C(=O)N[C@@H](Cc1c[nH]cn1)C(=O)N[C@H](C(=O)NCC(=O)N[C@@H](CC(N)=O)C(=O)N[C@@H](Cc1ccccc1)C(=O)N[C@H](C(=O)N[C@@H](Cc1c[nH]cn1)C(=O)NCC(=O)N[C@@H](Cc1ccccc1)C(=O)N[C@@H](CO)C(=O)N[C@@H](Cc1c[nH]cn1)C(=O)N[C@H](C(=O)N[C@@H](Cc1ccccc1)C(=O)O)C(C)C)C(C)C)C(C)C)[C@@H](C)CC	broth microdilution	USA300 LAC	37 °C	> 100 µM
N=C(N)NCCC[C@H](N)C(=O)N[C@@H](Cc1c[nH]c2ccccc12)C(=O)N[C@@H](Cc1c[nH]c2ccccc12)C(=O)N[C@@H](CCCCN)C(=O)N[C@@H](CCCCN)C(=O)N[C@@H](Cc1c[nH]c2ccccc12)C(=O)N[C@@H](Cc1c[nH]c2ccccc12)C(=O)NCC(=O)N[C@@H](CCCCN)C(N)=O	broth microdilution	USA300, Mueller-Hinton broth	overnight, 37 °C	8 µM
CCCCCCC1CC(=O)c2c(O)cc(O)cc2O1 (centres unmarked)	broth microdilution	MRSA NRS70		3.13 to 6.25 µg/mL
CC[C@H](C)[C@H](NC(=O)[C@H](CCCCN)NC(=O)[C@H](CC(C)C)NC(=O)[C@H](Cc1ccccc1)NC(=O)[C@H](CCCNC(=N)N)NC(=O)[C@H](CC(C)C)NC(=O)[C@H](Cc1ccccc1)NC(=O)[C@H](CCCNC(=N)N)NC(=O)[C@H](CO)NC(=O)[C@H](CC(C)C)NC(=O)[C@@H](N)CO)C(=O)N[C@H](C(=O)N[C@@H](Cc1ccc(O)cc1)C(=O)N[C@@H](CCCNC(=N)N)C(=O)N[C@@H](CCCNC(=N)N)C(=O)N[C@@H](C)C(=O)N[C@@H](Cc1ccccc1)C(N)=O)C(C)C	broth microdilution	USA300 LAC	37 °C	12.5 µM
CCCCCCCCCCCCCCc1cc(O)cc(O)c1	microbial growth, broth dilution	USA300	drug-resistant strain	> 64 µg/mL
CC[C@H](C)[C@H](NC(=O)[C@H](C)NC(=O)[C@H](CCCCN)NC(=O)[C@H](CC(C)C)NC(=O)[C@H](C)NC(=O)[C@@H](NC(=O)[C@H](Cc1c[nH]cn1)NC(=O)[C@H](CC(C)C)NC(=O)[C@@H](NC(=O)[C@@H](NC(=O)[C@H](CCCCN)NC(=O)[C@H](CCCCN)NC(=O)[C@H](C)NC(=O)[C@H](CO)NC(=O)[C@H](CCCCN)NC(=O)[C@H](Cc1ccccc1)NC(=O)[C@@H](NC(=O)[C@H](CCCCN)NC(=O)[C@H](CC(C)C)NC(=O)[C@H](Cc1ccccc1)NC(=O)[C@H](CO)NC(=O)[C@H](CCCCN)NC(=O)[C@H](Cc1c[nH]c2ccccc12)NC(=O)[C@H](CCCCN)NC(C)=O)[C@@H](C)O)[C@@H](C)O)C(C)C)[C@@H](C)O)C(=O)N[C@@H](CO)C(=O)N[C@@H](CO)C(N)=O	broth dilution	ATCC 25923, Mueller-Hinton broth	24 h, 37 °C	16 µg/mL
CC[C@H](C)[C@H](NC(=O)[C@H](Cc1ccc(O)cc1)NC(=O)[C@H](CCCCN)NC(=O)[C@@H](N)CS)C(=O)N[C@@H](CC(C)C)C(=O)N[C@@H](CC(C)C)C(=O)N[C@@H](CC(C)C)C(=O)N[C@@H](CCCNC(=N)N)C(=O)N[C@@H](CCCNC(=N)N)C(=O)N[C@@H](CCC(N)=O)C(=O)N[C@@H](CC(C)C)C(=O)N[C@@H](C)C(=O)N[C@@H](CCCNC(=N)N)C(=O)N[C@@H](C)C(=O)N[C@@H](Cc1c[nH]c2ccccc12)C(=O)N[C@@H](CCCNC(=N)N)C(=O)N[C@@H](CCCNC(=N)N)C(=O)NCC(=O)N[C@@H](CC(C)C)C(=O)N[C@@H](CCCNC(=N)N)C(=O)O	broth microdilution	USA300 JE2 wild type	18 to 20 h	24 µg/mL
CSCC[C@H](NC(=O)[C@H](CC(N)=O)NC(=O)[C@@H]1CCCN1C(=O)[C@@H]1CCCN1C(=O)[C@H](CCCNC(=N)N)NC(=O)[C@@H]1CCCN1C(=O)[C@H](CCCNC(=N)N)NC(=O)[C@@H]1CCCN1C(=O)[C@H](CCCNC(=N)N)NC(=O)[C@H](Cc1ccc(O)cc1)NC(=O)[C@H](CC(=O)O)NC(=O)[C@@H]1CCCN1C(=O)[C@H](CCCCN)NC(=O)[C@H](CC(=O)O)NC(=O)[C@@H](N)C(C)C)C(=O)O	broth microdilution	USA300 LAC	37 °C	> 100 µM
CC(C)C[C@H](NC(=O)[C@H](CC(C)C)NC(=O)[C@H](CCCCN)NC(=O)[C@H](CC(C)C)NC(=O)[C@H](CC(C)C)NC(=O)[C@H](CCCCN)NC(=O)[C@H](CCCCN)NC(=O)[C@H](CC(C)C)NC(=O)[C@H](CC(C)C)NC(=O)[C@H](CCCCN)NC(=O)[C@H](CC(C)C)NC(=O)[C@H](CC(C)C)NC(=O)[C@@H](N)CCCCN)C(=O)N[C@@H](CCCCN)C(N)=O		ATCC 43300, CAMHB	18 h, 37 °C	19 µM
CC[C@H](C)[C@H](NC(=O)[C@H](Cc1c[nH]cn1)NC(=O)[C@H](Cc1c[nH]cn1)NC(=O)[C@H](Cc1ccccc1)NC(=O)[C@@H](N)Cc1ccccc1)C(=O)N[C@@H](Cc1ccccc1)C(=O)N[C@@H](CCCNC(=N)N)C(=O)NCC(=O)N[C@@H](CCCCN)C(=O)N[C@H](C(=O)N[C@@H](Cc1c[nH]cn1)C(=O)N[C@H](C(=O)NCC(=O)N[C@@H](CCCCN)C(=O)N[C@H](C(=O)N[C@H](C(=O)N[C@@H](Cc1c[nH]cn1)C(=O)N[C@@H](CCCNC(=N)N)C(=O)N[C@@H](CC(C)C)C(=O)N[C@H](C(=O)N[C@H](C(=O)NCC(N)=O)[C@@H](C)O)C(C)C)[C@@H](C)CC)[C@@H](C)O)C(C)C)C(C)C	broth microdilution	ATCC 25923	18 h, 37 °C	3.1 µg/mL
C[C@H]1COc2c(N3CCN(C)CC3)c(F)cc3c(=O)c(C(=O)O)cn1c23	microbial growth, broth dilution	ATCCBAA1717 MRSA	20 h	0.48 µg/mL
Cc1nc2ccccc2n(-c2ccc([N+](=O)[O-])cc2[N+](=O)[O-])c1=O	microbial growth	ATCC25923		32.2 µg/mL
CC[C@H](C)[C@H](NC(=O)[C@H](C)NC(=O)[C@H](CCC(=O)O)NC(=O)[C@H](Cc1c[nH]cn1)NC(=O)[C@H](CC(C)C)NC(=O)CNC(=O)[C@H](CCC(N)=O)NC(=O)[C@H](Cc1ccccc1)NC(=O)[C@@H](NC(=O)[C@H](CCCCN)NC(=O)[C@H](CCCCN)NC(=O)[C@H](CC(C)C)NC(=O)[C@@H](NC(=O)[C@H](CC(N)=O)NC(=O)[C@H](CC(C)C)NC(=O)CN)[C@@H](C)O)C(C)C)C(=O)N[C@@H](CCCCN)C(=O)N[C@@H](CC(C)C)C(=O)N[C@H](C(=O)N[C@@H](CC(N)=O)C(=O)N[C@@H](CC(N)=O)C(=O)N[C@@H](Cc1c[nH]cn1)C(=O)N[C@H](C(=O)N[C@@H](CCC(N)=O)C(=O)O)C(C)C)[C@@H](C)CC	broth microdilution	USA300 LAC	37 °C	> 100 µM
CC(C)C[C@H](NC(=O)CN)C(=O)N[C@@H](Cc1ccccc1)C(=O)N[C@@H](CCCCN)C(=O)N[C@@H](CC(C)C)C(=O)N[C@@H](CC(C)C)C(=O)N[C@@H](CCCCN)C(=O)N[C@@H](CCCCN)C(=O)N[C@@H](CC(C)C)C(=O)N[C@@H](CC(C)C)C(=O)N[C@@H](CCCCN)C(=O)N[C@@H](CC(C)C)C(=O)N[C@@H](CC(C)C)C(=O)N[C@@H](CCCCN)C(N)=O		SH1000 GFP-expressing, nutrient broth	20 h, 37 °C	33 µM
CC[C@H](C)[C@H](NC(=O)[C@H](C)NC(=O)[C@@H]1CCCN1C(=O)[C@@H](NC(=O)[C@@H](NC(=O)[C@H](Cc1c[nH]cn1)NC(=O)[C@H](CO)NC(=O)[C@@H](NC(=O)[C@@H](NC(=O)[C@H](CO)NC(=O)CNC(=O)[C@H](CC(C)C)NC(=O)[C@H](CC(C)C)NC(=O)CNC(=O)[C@H](CC(C)C)NC(=O)[C@H](CC(C)C)NC(=O)CN)C(C)C)C(C)C)C(C)C)C(C)C)C(=O)N[C@H](C(=O)NCC(=O)N[C@@H](Cc1c[nH]cn1)C(=O)N[C@@H](Cc1ccccc1)C(N)=O)C(C)C	broth microdilution	USA300 LAC	37 °C	6.2 µM
CC(C)C[C@H](NC(=O)[C@H](C)NC(=O)CNC(=O)[C@@H](NC(=O)[C@@H](NC(=O)[C@H](CCCCN)NC(=O)[C@H](CCCCN)NC(=O)[C@@H](NC(=O)[C@H](CC(C)C)NC(=O)[C@H](CCCCN)NC(=O)[C@H](CC(C)C)NC(=O)[C@H](CC(C)C)NC(=O)[C@@H](N)CCCCN)C(C)C)C(C)C)C(C)C)C(=O)NCC(N)=O		ATCC 43300, CAMHB	18 h, 37 °C	> 22 µM
C[C@H](N)C(=O)N[C@@H](CS)C(=O)N1CCC[C@H]1C(=O)N[C@@H](Cc1c[nH]cn1)C(=O)N[C@@H](CCCNC(=N)N)C(=O)N[C@@H](CS)C(=O)O	broth microdilution	MTCC 96	37 °C	125 µg/mL
O=c1cc(C(F)(F)F)[nH]c2cc(C(F)(F)F)cc(N[C@H]3CC[C@H](C(F)(F)F)CC3)c12				< 0.125 µg/mL
CC(C)C[C@H](NC(=O)[C@H](C)NC(=O)CNC(=O)[C@@H](NC(=O)[C@H](CC(C)C)NC(=O)[C@H](CCCCN)NC(=O)[C@H](CCCCN)NC(=O)[C@H](CC(C)C)NC(=O)[C@H](CC(C)C)NC(=O)[C@H](CCCCN)NC(=O)[C@H](CC(C)C)NC(=O)[C@H](CC(C)C)NC(=O)[C@@H](N)CCCCN)C(C)C)C(=O)NCC(N)=O		ATCC 43300, CAMHB	18 h, 37 °C	5 µM

Some of these lines once more:
SMILES	assay	system	conditions	MIC
C[C@H](N)C(=O)N[C@@H](CS)C(=O)N1CCC[C@H]1C(=O)N[C@@H](Cc1c[nH]cn1)C(=O)N[C@@H](CCCNC(=N)N)C(=O)N[C@@H](CS)C(=O)O	broth microdilution	MTCC 96	37 °C	125 µg/mL
CC(C)C[C@H](NC(=O)[C@H](C)NC(=O)CNC(=O)[C@@H](NC(=O)[C@@H](NC(=O)[C@H](CCCCN)NC(=O)[C@H](CCCCN)NC(=O)[C@@H](NC(=O)[C@H](CC(C)C)NC(=O)[C@H](CCCCN)NC(=O)[C@H](CC(C)C)NC(=O)[C@H](CC(C)C)NC(=O)[C@@H](N)CCCCN)C(C)C)C(C)C)C(C)C)C(=O)NCC(N)=O		ATCC 43300, CAMHB	18 h, 37 °C	> 22 µM
CSCC[C@H](NC(=O)[C@H](CC(N)=O)NC(=O)[C@@H]1CCCN1C(=O)[C@@H]1CCCN1C(=O)[C@H](CCCNC(=N)N)NC(=O)[C@@H]1CCCN1C(=O)[C@H](CCCNC(=N)N)NC(=O)[C@@H]1CCCN1C(=O)[C@H](CCCNC(=N)N)NC(=O)[C@H](Cc1ccc(O)cc1)NC(=O)[C@H](CC(=O)O)NC(=O)[C@@H]1CCCN1C(=O)[C@H](CCCCN)NC(=O)[C@H](CC(=O)O)NC(=O)[C@@H](N)C(C)C)C(=O)O	broth microdilution	USA300 LAC	37 °C	> 100 µM
